Measurements collected from several papers.
Compare with care: the assays were run in different laboratories. Several values in a cell are separate wells, animals, samples, runs or records. ± marks the error that the study gave.

Cc1[nH]c2ccccc2c1CCNC(=O)c1ccccc1F — IC50 (Listeria; Listeria comet tail formation; SK-OV-3; infected cells): 7 µM
COC1C=COC2(C)Oc3c(C)c(O)c4c(c3C2=O)C2=NC3(CCN(CC(C)C)CC3)NC2=C(NC(=O)C(C)=CC=CC(C)C(O)C(C)C(O)C(C)C(OC(=O)Nc2cccnn2)C1C)C4=O (centres unmarked) — IC50 (Mycobacteroides abscessus; intracellular growth, Hill fit; THP-1 derived macrophages, ATCC 19977): 0.037 µM
Oc1cccc2c1[nH]c1c(C3=CC4(O)CCC=CCCCCN5CCC3C3(CC6C=CCCCCN6C43)C5)nccc12 (single isomer, unassigned; (+)) — IC50 (Mycobacterium intracellulare; microbial growth, resazurin; ATCC23068): 0.13 µg/mL
COc1cc(C2CC(=O)Nc3nc(N)[nH]c(=O)c32)ccc1O (centres unmarked) — IC50 (Leishmania donovani; MTT; AG83 wild type promastigotes; 48 h): 57.1 ± 0.8 µM
CNCc1ccc2c(c1)N(C(=O)OCc1c(F)c(F)c(F)c(F)c1F)[C@H](CNC(=N)N)[C@H]2NC(=O)C(=O)Nc1ccc(Cl)c(F)c1 — IC50 (Human immunodeficiency virus 1; viral infection, Env pseudovirus; TZM-bl, 620345.c01 CRF01_AE): 21.4 µM
O=C1Nc2ccccc2C1(c1c[nH]c2ccccc12)c1c[nH]c2ccccc12 — IC50 (Bacteroides fragilis; microbial growth, absorbance): 3.6 µM
COC1CN([C@H]2CC[C@H]([C@@]3(C)Oc4c(Cl)cc(C(=O)NCc5c(SC)cc(C)[nH]c5=O)c(C)c4O3)CC2)C1 — log2 fold change (RNA-seq, item: TRIM2; human, whole blood; dose not given, 24 h; baseline: pretreatment baseline): 1.77
c1ccc2c(Cc3c(-c4c[nH]c5ccccc45)[nH]c4ccccc34)c[nH]c2c1 — IC50 (Bacteroides fragilis; microbial growth, absorbance): 3.1 µM
CCN(CC)CC#CCNc1ccnc2cc(Cl)ccc12 — IC50 (Plasmodium falciparum; parasite growth, SYBR Green I; 3D7): 0.0479 µM and 0.0421 µM
CNCc1ccc2c(c1)C[C@H](CNC(=N)N)[C@H]2NC(=O)C(=O)Nc1ccc(Cl)c(F)c1 — IC50 (Human immunodeficiency virus 1; viral infection, Env pseudovirus; TZM-bl, 620345.c01 CRF01_AE): > 100 µM
COC1C=COC2(C)Oc3c(C)c(O)c4c(c3C2=O)C2=NC3(CCN(CC(C)C)CC3)NC2=C(NC(=O)C(C)=CC=CC(C)C(O)C(C)C(O)C(C)C(OC(=O)Nc2cnccn2)C1C)C4=O (centres unmarked) — IC50 (Mycobacteroides abscessus; bacterial growth; subsp. abscessus ATCC 19977): 0.02 µM

Excerpt of the above:
CCN(CC)CC#CCNc1ccnc2cc(Cl)ccc12 — IC50 (Plasmodium falciparum; parasite growth, SYBR Green I; 3D7): 0.0479 µM and 0.0421 µM
